Experimental data collected from several papers.
Each numbered part is a random draw from the data of one study; scales do not carry over between parts. Positions count from the first letter of the parent shown.

Study 1
Target: Histone acetyltransferase KAT6A, winged helix 1, GST fusion (KAT6A, Homo sapiens, UniProt Q92794, residues 1-85)
Method: protein binding microarray
Form: double-stranded DNA, one strand shown
Medium: in vitro
Tested at: not given
Setting: 8-mer, flanks averaged, mean of 2 arrays, mostly near background
Relative to: not given
Reading: higher = stronger binding
Measurement: E-score
Residues (chain): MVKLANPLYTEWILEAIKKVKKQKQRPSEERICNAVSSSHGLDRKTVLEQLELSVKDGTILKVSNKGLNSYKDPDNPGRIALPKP
CAATATGG: -0.186
CAGGGTAA: -0.115
ATCGTGGG: -0.085
ATTTGTAC: -0.0971
CCCGGGCA: 0.309
CAACACCA: -0.214
AGAGCCAC: -0.12
GCAGTCGC: 0.226
CCTCCAAG: -0.206
CTCGCCGC: 0.385
ACGACGAA: -0.137
AATGAAAG: -0.0906
ATACGTTC: -0.105
AAGAATGG: -0.169
AAGATGCC: 0.0403
TCGTAACA: 0.0481
ACGCGTGC: 0.342
CGGTCGGA: 0.161
AGTCGCCG: 0.373
CCCGCTAC: 0.255
AGGTCTCG: -0.103
CCCCCCCG: 0.078
ACTAACTA: -0.0719
GCACTAGA: 0.0562
ATAAGCGA: 0.13

Study 2
Target: JDP2, bZIP domain (human)
Method: DHFR protein complementation
Medium: yeast
Setting: single substitutions, most at no-binding floor
Relative to: wild-type JUN-FOS pair
Reading: higher = stronger binding
Measurement: binding fitness
Starting sequence: JUN, bZIP domain (human); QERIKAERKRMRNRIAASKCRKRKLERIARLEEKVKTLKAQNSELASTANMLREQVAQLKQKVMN; partner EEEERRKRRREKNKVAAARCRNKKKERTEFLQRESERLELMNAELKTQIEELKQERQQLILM
A57V: 0.29 natural log
V56Q: -0.449 natural log
L45P: -1.14 natural log
T48H: 0.243 natural log
I28E: 0.234 natural log
Q41N: 0.185 natural log
E54T: 0.246 natural log
L38A: 0.264 natural log
Q55D: 0.22 natural log
M51P: -0.165 natural log
N42M: 0.176 natural log
S43L: 0.254 natural log
S47I: 0.255 natural log
A57S: 0.169 natural log
L52P: -0.97 natural log
E33F: 0.215 natural log
A49H: 0.21 natural log
Q55R: 0.216 natural log
A40E: 0.327 natural log
M51K: 0.272 natural log
L45A: 0.0853 natural log
K39G: 0.277 natural log
T37P: -0.513 natural log
R53Q: 0.209 natural log
S47H: 0.224 natural log

Study 3
Target: CCND3, cyclin fold, Cln2 fusion (human)
Method: yeast growth competition, sequencing
Medium: yeast
Setting: weak parent motif
Relative to: not given
Reading: higher = stronger binding
Measurement: normalised enrichment score
Starting sequence: CDC6 docking peptide (human); TLKGRRLVFDNQL
Q12Y: 0.159
V8A: 0.14
Q12H: 0.0982
V8I: 0.0278
N11A: 0.206
D10H: 0.136
T1C: 0.0697
R6Q: 0.0823
D10F: 0.0757
G4C: 0.213
Q12V: 0.16
V8S: 0.0994
L2F: 0.0106
R6V: 0.224
D10S: 0.199
N11H: 0.0519
D10P: 0.0566
T1E: 0.0998
V8Y: 0.07
R5L: 0.138
Q12F: 0.041
R5Q: -0.00523
F9E: 0.158

Study 4
Target: RNA binding protein fox-1 homolog 2, RRM domain, GST-SBP tag (RBFOX2, Homo sapiens, UniProt O43251-10, residues 100-194)
Method: RNA Bind-n-Seq
Form: RNA
Medium: in vitro
Tested at: 365 nM
Setting: natural RNA segment, single round, ends assumed
Relative to: no-protein control
Reading: higher = stronger binding
Measurement: RBNS enrichment (R)
Construct (chain): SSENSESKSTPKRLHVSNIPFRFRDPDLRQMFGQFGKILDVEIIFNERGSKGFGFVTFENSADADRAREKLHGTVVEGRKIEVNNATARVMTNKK
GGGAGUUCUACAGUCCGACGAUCAGCUAGAGCAGAACUCUUCAUGUACAACGGCCAUUUCUCCUCACUGGCGCGAGAGCGCCUUGACACCUGUACCAAGCAAGCCACCCACUGCCAAGAGAUGUGAUAUAUAAUGGAAUUCUCGGGUGCCAA: 0.873
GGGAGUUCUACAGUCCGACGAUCUUAUCUCAGGGCUCUGCCUGGCCCACCUUCUCUUGGGCCUGGACUCUCCUUAUCCACAUCCCUGCAGAAGGUGGGCCCUAUUCUCAGAAGAGUCCUGGCUGCUGUUGCCAUGGAAUUCUCGGGUGCCAA: 0.313
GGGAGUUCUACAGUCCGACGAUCUCAUGUGACCCCAGCAACUUUGGUGAUACUGAGAGGCCAGCAGGCAGUAGAGUGGACACCUCGGCCGUGGCCACUUUAGAGGGGGAAAAGUUUAAGUUUUAAACUAAAAGUGGAAUUCUCGGGUGCCAA: 0.512
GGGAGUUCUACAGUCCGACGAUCUGCUUAGUGCCAUAGGUAGACUGAGUCUUCUGUAAGUCAUCAUUACAUAGUAAUUUUGGUUCUGAAUUUUACAUUAAAUUAUUUGAAUAUAUACAGACCUAAAUUUUAAAUGGAAUUCUCGGGUGCCAA: 0.492
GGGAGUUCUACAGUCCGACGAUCUUGUCAUAAGUUAUGUUUCAGAUUUUUGAAUUUAUUUAUAUGUGUUAUAAUGAAUGCUUCUAUUUAAAAGGGAAAUAUUUCUACAUGUGCAUAUAGUUUUCCAAGAGUGUUGGAAUUCUCGGGUGCCAA: 0.634
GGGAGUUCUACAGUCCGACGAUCAAUGUUCACCCUUCCAAGAUCUUAUAUUAAAGAAAAAAUUUUAAAAAGCUUAUAUAUUUGUAGCAAAGUUAUUCUUAAAUAUGAAUUAUGUUAUAACUUAGUGACUUUUGUGGAAUUCUCGGGUGCCAA: 1.03
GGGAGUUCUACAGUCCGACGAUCGGUUGAUAUAGCGACAUUACCUGGGCUCUGUGCUGUCCUGUGGGUGGAGGCCAUUAUCACUGGGCUGCUGCUUUCCUGGGCAAGCCACUCUCUAUUUUUCUGCAAAGGUCUGGAAUUCUCGGGUGCCAA: 0.336
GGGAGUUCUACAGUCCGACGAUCGUUAACCUUUUUGUAAAUACUGCUUGACCGUACUCUCACAUGUGGCAAAAUAUGGUUUGGUUUUUCUUUUUUUUUUUUUUUGAAAGUGUUUUUUCUUCGUCCUUUUGGUUUGGAAUUCUCGGGUGCCAA: 0.876
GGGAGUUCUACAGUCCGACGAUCCAUGAGCACUCAAAGUGCCUUUCGAACCAUAAUGCCAUCUUGAAUUUGGGUCCUCUCGGCCCCAACUGACCAGAGGCCAACUGUGUUCACAUUUAUUUUUCUUAAAGUACUGGAAUUCUCGGGUGCCAA: 0.264
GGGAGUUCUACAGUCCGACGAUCGUUUUGAGACUGGGUUUCAUUCUGUAGCCCAGGCUAGCCCUGAACUUGUUACAGUGUCCUUUUUUUCUCAGCUUCAGGAUUAUGGACAUAGAUCUCCACACCUGGCUUGUUGGAAUUCUCGGGUGCCAA: 0.374
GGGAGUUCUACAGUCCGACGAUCAGAUGCCUUUGAUCAGAGUUUGACUCACAGACAGCAUUUGAGCUCUACAGCUAUUUGAGUCCCUAGACCUUAUUUGAUCAUAUUCAAAAGAUCAUUUCCCAUGCUUGCUUUGGAAUUCUCGGGUGCCAA: 2.07
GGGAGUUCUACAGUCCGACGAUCUUGCGGUGCUGCCGUCCUUUUGGGUUCUUGAUUUCUGGAUACAUGUAGCUUUGCCAGAUAUGUACUUAGAGAUAUCAACCGUGUUAAUAAGCCCAUUAAUGUGUAACAACUGGAAUUCUCGGGUGCCAA: 0.405

Study 5
Target: UBE2O UBC core domain (UniProt Q9C0C9)
Method: yeast two-hybrid
Medium: yeast
Setting: mostly zero background
Relative to: not given
Reading: higher = stronger interaction
Measurement: lacZ reporter activity
B1: MKRN1 RING domain (UniProt Q9UHC7); chain FAVQRSKDMVCGICMEVVYEKANPSERRFGILSNCNHTYCLKCIRKWRSAKQFESKIIKSCPECRITSNFVIPSE
B2: RNF111 RING domain (UniProt Q6ZNA4); chain EGTEEDTEEKCTICLSILEEGEDVRRLPCMHLFHQVCVDQWLITNKKCPICRVDIEAQLPSE
B3: RNF208 RING domain (UniProt Q9H0X6); chain SSAAAGEPLECPTCGHSYNVTQRRPRVLSCLHSVCEQCLQILYESCPKYKFISCPTCRRETVLFTDYG
B4: DTX4 RING domain (UniProt Q9Y2E6); chain QKVRHPPDEDCTICMERLTAPSGYKGPQPTVKPDLVGKLSRCGHVYHIYCLVAMYNNGNKDGSLQCPTCKTIYGVKTGTQ
B5: TRIM24 RING domain (UniProt O15164); chain EAARLNLLDTCAVCHQNIQSRAPKLLPCLHSFCQRCLPAPQRYLMLPAPMLGSAETPPPVPAPGSPVSGSSPFATQVGVIRCPVCSQECAERHII
B6: TRAF5 RING domain (UniProt O00463); chain FVERLEERYKCAFCHSVLHNPHQTGCGHRFCQHCILSLRELNTVPICPVDKEVIKSQEVFK
B7: TRIM4 RING domain (UniProt Q9C037); chain EAEDIQEELTCPICLDYFQDPVSIECGHNFCRGCLHRNWAPGGGPFPCPECRHPSAPAALRP
B8: TRIM40 RING domain (UniProt Q6P9F5); chain LQKDNQEEGVCPICQESLKEAVSTNCGHLFCRVCLTQHVEKASASGVFCCPLCRKPCSEEVLG
B9: TRIM13 RING domain (UniProt O60858); chain MELLEEDLTCPICCSLFDDPRVLPCSHNFCKKCLEGILEGSVRNSLWRPAPFKCPTCRKETSATGINS
B10: RC3H1 RING domain (UniProt Q5TC82); chain QAPQWTDFLSCPICTQTFDETIRKPISLGCGHTVCKMCLNKLHRKACPFDQTTINTDIELL
B11: RNF38 RING domain (UniProt Q9H0F5); chain PNNHQSEQTLCVVCMCDFESRQLLRVLPCNHEFHAKCVDKWLKANRTCPICRADASEVHRDS
Residues (chain): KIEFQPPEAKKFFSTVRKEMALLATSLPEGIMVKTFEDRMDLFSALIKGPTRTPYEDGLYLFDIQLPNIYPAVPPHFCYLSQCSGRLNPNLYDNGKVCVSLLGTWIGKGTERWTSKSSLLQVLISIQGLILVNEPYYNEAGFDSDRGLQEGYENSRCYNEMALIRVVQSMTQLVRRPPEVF
B1 (MKRN1 RING domain): 0
B2 (RNF111 RING domain): 0
B3 (RNF208 RING domain): 0
B4 (DTX4 RING domain): 0
B5 (TRIM24 RING domain): 0
ASLPTSEEDLCPICYAHPISAVFQPCGHKSCKACINQHLMNNKDCFFCKTTIVSVEDWE (RNF123 RING domain (UniProt Q5XPI4)): 0
B6 (TRAF5 RING domain): 0
B7 (TRIM4 RING domain): 0
FQGDVDEDLICPICSGVLEEPVQAPHCEHAFCNACITQWFSQQQTCPVDRSVVTVAHLRP (RNF41 RING domain (UniProt Q9H4P4)): 0
B8 (TRIM40 RING domain): 0
B9 (TRIM13 RING domain): 0
MPIRALCTICSDFFDHSRDVAAIHCGHTFHLQCLIQWFETAPSRTCPQCRIQVGKRTIIN (TRAIP RING domain (UniProt Q9BWF2)): 0
QVDKAVFHMQSVKCLKCQEQKRAVLPCQHAALCELCAEGSECPICQPGRAHTLQS (UNK RING domain (UniProt Q9C0B0)): 0
B10 (RC3H1 RING domain): 0
PAELEVQASECVVCLEREAQMIFLNCGHVCCCQQCCQPLRTCPLCRQDIAQRLRIY (LRSAM1 RING domain (UniProt Q6UWE0)): 0
B11 (RNF38 RING domain): 0
